Values quoted from earlier work as cited in several papers.
Protocols differ between the studies behind these lines. ± marks the error that the study gave.
UniProt Q9UPZ9, sequence (whole entry, looked up): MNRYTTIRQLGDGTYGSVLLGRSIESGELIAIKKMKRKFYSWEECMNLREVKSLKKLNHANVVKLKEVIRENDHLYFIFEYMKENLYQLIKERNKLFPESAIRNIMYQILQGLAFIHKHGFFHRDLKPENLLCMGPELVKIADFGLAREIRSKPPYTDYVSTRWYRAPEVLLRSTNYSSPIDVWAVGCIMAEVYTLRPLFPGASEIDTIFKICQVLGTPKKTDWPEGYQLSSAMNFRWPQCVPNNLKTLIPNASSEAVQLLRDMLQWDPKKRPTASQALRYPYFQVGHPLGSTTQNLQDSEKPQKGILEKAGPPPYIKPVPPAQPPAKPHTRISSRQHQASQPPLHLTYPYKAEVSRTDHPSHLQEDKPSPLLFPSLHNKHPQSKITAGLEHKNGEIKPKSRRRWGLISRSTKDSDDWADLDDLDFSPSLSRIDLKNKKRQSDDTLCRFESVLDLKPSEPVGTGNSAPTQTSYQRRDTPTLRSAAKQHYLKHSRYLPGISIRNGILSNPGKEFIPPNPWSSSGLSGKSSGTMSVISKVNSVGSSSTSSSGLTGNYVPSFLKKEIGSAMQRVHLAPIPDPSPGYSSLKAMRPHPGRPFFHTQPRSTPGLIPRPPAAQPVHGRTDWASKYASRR
UniProt P07333, sequence (whole entry, looked up): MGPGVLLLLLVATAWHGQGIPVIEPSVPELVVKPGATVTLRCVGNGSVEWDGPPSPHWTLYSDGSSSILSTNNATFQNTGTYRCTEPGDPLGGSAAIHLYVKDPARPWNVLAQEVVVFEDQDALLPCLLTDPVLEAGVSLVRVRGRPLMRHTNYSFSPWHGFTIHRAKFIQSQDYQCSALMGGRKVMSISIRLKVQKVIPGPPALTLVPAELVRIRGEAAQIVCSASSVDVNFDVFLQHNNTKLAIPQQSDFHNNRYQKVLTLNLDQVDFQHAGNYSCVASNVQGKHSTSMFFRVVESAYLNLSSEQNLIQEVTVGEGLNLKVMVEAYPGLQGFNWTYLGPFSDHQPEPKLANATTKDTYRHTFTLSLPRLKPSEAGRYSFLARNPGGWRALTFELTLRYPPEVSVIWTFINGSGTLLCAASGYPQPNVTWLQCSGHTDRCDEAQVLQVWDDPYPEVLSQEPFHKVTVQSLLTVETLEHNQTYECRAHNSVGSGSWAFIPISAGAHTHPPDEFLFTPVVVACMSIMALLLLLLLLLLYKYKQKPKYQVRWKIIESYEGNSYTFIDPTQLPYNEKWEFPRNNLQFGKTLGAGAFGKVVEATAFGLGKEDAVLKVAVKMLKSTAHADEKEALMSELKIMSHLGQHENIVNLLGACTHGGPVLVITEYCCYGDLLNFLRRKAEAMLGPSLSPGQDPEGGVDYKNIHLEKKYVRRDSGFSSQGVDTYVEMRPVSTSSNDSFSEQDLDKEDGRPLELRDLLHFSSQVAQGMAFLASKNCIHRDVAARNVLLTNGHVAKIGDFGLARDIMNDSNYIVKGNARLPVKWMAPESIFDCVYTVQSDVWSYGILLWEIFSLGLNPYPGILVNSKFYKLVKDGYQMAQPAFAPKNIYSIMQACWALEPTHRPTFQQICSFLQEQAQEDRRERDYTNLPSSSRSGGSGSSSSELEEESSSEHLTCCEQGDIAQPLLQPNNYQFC
UniProt O00329, sequence (whole entry, looked up): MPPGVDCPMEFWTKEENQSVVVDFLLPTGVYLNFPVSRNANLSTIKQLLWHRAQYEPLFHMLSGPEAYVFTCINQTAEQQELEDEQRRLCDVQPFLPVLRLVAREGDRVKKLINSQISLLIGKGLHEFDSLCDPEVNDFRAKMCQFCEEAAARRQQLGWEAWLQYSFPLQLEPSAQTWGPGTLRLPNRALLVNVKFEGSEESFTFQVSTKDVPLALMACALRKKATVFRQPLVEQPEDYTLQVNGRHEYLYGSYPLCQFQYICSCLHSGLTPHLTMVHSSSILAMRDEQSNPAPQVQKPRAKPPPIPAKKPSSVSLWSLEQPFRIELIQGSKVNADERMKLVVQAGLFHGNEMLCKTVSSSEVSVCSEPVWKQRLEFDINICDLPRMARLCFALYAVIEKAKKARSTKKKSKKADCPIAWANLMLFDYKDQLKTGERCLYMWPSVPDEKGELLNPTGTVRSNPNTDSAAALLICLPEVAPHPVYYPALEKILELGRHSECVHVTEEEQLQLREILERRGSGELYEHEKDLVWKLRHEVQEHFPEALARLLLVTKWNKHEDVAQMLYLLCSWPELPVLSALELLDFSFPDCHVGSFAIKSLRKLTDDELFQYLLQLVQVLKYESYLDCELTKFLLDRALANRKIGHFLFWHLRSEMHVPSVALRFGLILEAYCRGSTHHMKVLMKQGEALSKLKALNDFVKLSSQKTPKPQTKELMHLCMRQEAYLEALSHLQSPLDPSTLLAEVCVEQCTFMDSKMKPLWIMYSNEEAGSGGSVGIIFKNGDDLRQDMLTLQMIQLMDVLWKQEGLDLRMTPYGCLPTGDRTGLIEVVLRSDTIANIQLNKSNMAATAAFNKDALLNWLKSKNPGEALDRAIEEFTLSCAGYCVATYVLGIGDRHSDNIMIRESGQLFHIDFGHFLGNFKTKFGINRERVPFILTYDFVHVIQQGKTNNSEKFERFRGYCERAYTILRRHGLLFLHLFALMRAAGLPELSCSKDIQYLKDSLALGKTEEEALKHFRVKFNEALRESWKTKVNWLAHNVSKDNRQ

The AUC(0-tau) of `CO[C@@H](C)Cn1c(=O)n(C)c2cnc3ccc(-c4cncc(C(C)(C)O)c4)cc3c21` is reported as 3280 ng·h/mL (human; 200 mg twice daily, monotherapy, steady state, day 15).
With `CNC(C)C1CCC(N)C(OC2C(N)CC(N)C(OC3OCC(C)(O)C(NC)C3O)C2O)O1` (stereo not drawn) the renal clearance was 0.686 mL/min/kg (human).
With `CCc1cc2c(cc1CC)CC(NC[C@H](O)c1ccc(O)c3[nH]c(=O)ccc13)C2` the Tlast was 24 h (human, plasma; inhaled).
`CC1(C)CCC(CN2CCN(c3ccc(C(=O)NS(=O)(=O)c4ccc(NCC5CCOCC5)c([N+](=O)[O-])c4)c(Oc4cnc5[nH]ccc5c4)c3)CC2)=C(c2ccc(Cl)cc2)C1`: “apparent central volume (V2/F)” 118 L (legacy population PK model; human; dose not given).
For `CC(C)(C)c1cc(C(C)(C)C)c(NC(=O)c2c[nH]c3ccccc3c2=O)cc1O`, “mean plasma concentration” read ~4 µM (human adults with cystic fibrosis, plasma).
For `C=CCCC(=O)O`, the EC10 was 747000 nM (scoliosis or lordosis; zebrafish embryo; nominal concentration).
The remaining activity of `Nc1cc(C(F)(F)F)c(-c2nc(N3CCOCC3)nc(N3CCOCC3)n2)cn1` is reported as 100% (CILK1 (Homo sapiens, UniProt Q9UPZ9); enzyme activity; 10 µM; baseline: untreated).
The logD of `CC(C)(C)OC(=O)c1ccc(O)cc1` is reported as 2.83 (pH 7.4).
The log KAW of `C[Si](C)(C)O[Si](C)(C)O[Si](C)(C)C` is reported as 2.13 (28 °C).
`CC(=O)N[C@@H]1CCC[C@H](C(=O)Nc2cc(-c3cnn4c3CC(C)(C)C4)c(Cl)cn2)C1` has a half-life of 0.18 h (rat).
For `C[C@]12CC[C@@H]3c4ccc(O)cc4C[C@@H](CCCCCCCCC[S+]([O-])CCCC(F)(F)C(F)(F)F)[C@H]3[C@@H]1CC[C@@H]2O` (stereo partly drawn), “steady-state plasma level” read 28 ng/mL (human patients, plasma; dose not given).
`Nc1nc(=O)n([C@@H]2CS[C@H](CO)O2)cc1F` has a bioavailability of 79% (mouse; 100 mg/kg).
The Kp of `Cc1c(C(=O)O)ccc2c3n(nc12)[C@@H]1[C@H](C3)N(CC2CC2)[C@@]2(C(=O)Nc3cc(Cl)ccc32)[C@H]1c1cccc(Cl)c1F` is reported as 0.26 (Abcb1a/b-/- mice, brain, plasma).
`Cc1cc(Nc2ccc(S(F)(F)(F)(F)F)cc2)n2ncnc2n1` gave an intrinsic clearance of < 5 µL/min/mg (human liver microsomes).
`Cc1nc(NC(=O)N2CCC[C@H]2C(N)=O)sc1-c1ccnc(C(C)(C)C(F)(F)F)c1`: “time to steady state” ≤ 3 days (human; daily dosing).
The oral bioavailability of `O=c1[nH]cnc2c1ncn2[C@H]1CC[C@@H](CO)O1` is reported as 9.5% (rat).
`CN(C)C(=O)c1cc2cnc(Nc3ccc(N4CCNCC4)cn3)nc2n1C1CCCC1`: “decrease in Cmax” 23% (healthy human; oral, 600 mg, together with: high-fat high-calorie meal; baseline: fasted).
The IC50 of `Cc1c(C#N)cccc1[C@@H](C)Nc1nnc(C)c2cnc(N3CCOCC3)cc12` is reported as 35.4 ± 6.6 nM (HOP-92; ERK phosphorylation, In-Cell Western, item: phospho-ERK).
With `Cc1nc(NC(=O)N2CCC[C@H]2C(N)=O)sc1-c1ccnc(C(C)(C)C(F)(F)F)c1` the remaining binding was 0.15% (PIK3CD (Homo sapiens, UniProt O00329); KinomeScan competition binding; 10 µM).
`N=C(N)NCCC[C@H](NC(=O)[C@H](CCCNC(=N)N)NC(=O)[C@H](CCCCN)NC(=O)[C@H](CCC(N)=O)NC(=O)[C@H](CCCCN)NC(=O)[C@H](Cc1ccc(O)cc1)NC(=O)[C@@H](N)CCCCN)C(=O)N[C@@H](CO)C(=O)N[C@@H](Cc1ccc(O)cc1)C(=O)N[C@@H](CCCCN)C(=O)O` gave an NOAEL of 1200 µg/kg/day (rat; intravenous, dose not given, repeated-dose toxicity).
`CN[C@@H](C)C(=O)N[C@H]1CN(S(=O)(=O)c2cccc(S(=O)(=O)N3CC[C@H]4CC[C@@H](C(=O)NC(c5ccccc5)c5ccccc5)N4C(=O)[C@@H](NC(=O)[C@H](C)NC)C3)c2)CC[C@H]2CC[C@@H](C(=O)NC(c3ccccc3)c3ccccc3)N2C1=O`: “stability at room temperature” 4 h (5 % glucose injection).
`COc1ccc([C@@H](O)c2cc(-c3ncnc4cc(N5CCOCC5)ccc34)c(F)cc2Cl)nn1` gave a terminal half-life of 2.4 h (mouse; oral, 20 mg/kg).
`CN1CC(=O)N2[C@H](c3ccc4c(c3)OCO4)c3[nH]c4ccccc4c3C[C@@H]2C1=O` gave an AUC(0-inf) of 170 ± 85 ng·h/mL (rat; oral, 1 mg/kg).
For `CCN1CCN(Cc2ccc(Nc3ncc(F)c(-c4cc(F)c5nc(C)n(C(C)C)c5c4)n3)nc2)CC1`, “apparent volume Vss/F” read ~1300 L (human; dose not given, steady state, geometric mean).
Under “rate constant k13”, `CN(C)C(=N)N=C(N)N` is recorded as 0.0874 min⁻¹ (patients with liver failure).
`Cc1cc(-c2nccc3c2ccn3CC(=O)Nc2ccc(-c3cnccn3)cn2)ccn1` gave a Cmax, total of 2.9 µM (rat; 6 mg/kg/day, 1 month, repeat dosing).
The Cmax of `CC(=O)c1c(C)c2cnc(Nc3ccc(N4CCNCC4)cn3)nc2n(C2CCCC2)c1=O` is reported as 1260 ng/mL (male rat; 30 mg/kg).
`COc1ccc2nc([S@+]([O-])Cc3ncc(C)c(OC)c3C)[nH]c2c1` gave an AUC of 293 ng⋅h/mL (Japanese non-obese humans; intravenous bolus, 20 mg racemic omeprazole).
`CCC(C)n1ncn(-c2ccc(N3CCN(c4ccc(OCC5COC(Cn6cncn6)(c6ccc(Cl)cc6Cl)O5)cc4)CC3)cc2)c1=O` (stereo not drawn): “absorption rate constant” 0.75 h⁻¹ (first-order absorption model).
`CC(C)(C)COc1nc(C(F)(F)F)ccc1CNC(=O)Nc1cccc2[nH]ncc12` has an IC50 of 6 nM (TRPV1; calcium flux, antagonist; HEK293; together with: capsaicin).
`COc1cc2c(Oc3ccc4[nH]c(C)cc4c3F)ccnc2cc1OCC1(N)CC1` has an AUC(0-t) of 875 ± 240 ng·h/mL (human; 12 mg single dose).
For `CCN1CCN(Cc2ccc(Nc3ncc(F)c(-c4cc(F)c5nc(C)n(C(C)C)c5c4)n3)nc2)CC1`, the Css,max was 249 ng/mL (human; 150 mg twice daily, with endocrine therapy).
`CCCOc1ccc(S(=O)(=O)N2CCN(CCO)CC2)cc1-c1nc2c(CCC)cn(CC)c2c(=O)[nH]1` — result for “systolic blood pressure change”: -15.1 mmHg (healthy male volunteers; dose not given, with concomitant alcohol).
`Cc1ccc(NC(=O)c2ccc(CN3CCN(C)CC3)cc2)cc1Nc1nccc(-c2cncc(-c3oncc3C)c2)n1` has a Cmax of 5060 ng/mL (mouse; 100 mg/kg/day, steady state).
`Cc1cn([C@@H]2C[C@@H](O)[C@H](CO)O2)c(=O)[nH]c1=O` gave an oral bioavailability of 60% (rat; 10 mg/kg).
`CNC(C)C1CCC(N)C(OC2C(N)CC(N)C(OC3OCC(C)(O)C(NC)C3O)C2O)O1` (stereo not drawn) has an MIC of > 8 µg/mL (Klebsiella pneumoniae; clinical isolate RKI-No_503/15).
Under “protonation constant (log)”, `O=C(O)CN(CCN(CC(=O)O)CC(=O)O)CCN(CC(=O)O)CC(=O)O` is recorded as 4.13 (pH-potentiometry, item: logK3H; 0.1 M NaClO4; 25 °C).
For `C=CC(=O)N1CCC(C(=O)NCC(=O)N2CCN(c3nc(-c4cnc(N)nc4C(F)F)nc(N4CCOCC4)n3)CC2)CC1`, the remaining activity was 20% (Macrophage colony-stimulating factor 1 receptor, autoinhibited (CSF1R, Homo sapiens, UniProt P07333); kinase activity; 1 µM).
`Cc1cc(=O)n(-c2ccccc2)n1C` has a plasma clearance of 5.1 mL/min/kg (rat).
For `c1ccc2cc3c(ccc4ccccc43)cc2c1`, the logKow was 5.97 (slow stirring).
With `C[C@H]1COCCN1c1nc(-c2cnc(N)cc2C(F)F)nc(N2CCOCC2)n1` the GI50 was 118 nM (OVCAR-3).
For `CCC(CC)C(=O)O`, the EC10 was 363000 nM (pericardial and yolk oedema; zebrafish embryo; nominal concentration).
`CC1(C)S[C@@H]2[C@H](NC(=O)[C@H](N)c3ccccc3)C(=O)N2[C@H]1C(=O)O` gave an MIC of > 16 µg/mL (Klebsiella pneumoniae; clinical isolate RKI-No_503/15).
`CNC(=O)c1c(C)oc2cc(Oc3ncnc4cc(OC)c(OC)cc34)ccc12` gave a dose recovered of 30% (feces; 5 mg radiolabelled, time not given).
The CL of `Cc1ncc([N+](=O)[O-])n1CCO` is reported as 1 mL/min/kg (human).
For `CC(C)(C(=O)O)c1ccc(C(O)CCCN2CCC(C(O)(c3ccccc3)c3ccccc3)CC2)cc1` (stereo not drawn), the AUC(0-6 h) was 59.2 to 148 ng·h/mL (healthy volunteers; dose not given, normal P-gp activity category).
With `C=C1[C@H](CO)[C@@H](O)C[C@@H]1n1cnc2c(=O)[nH]c(N)nc21` the oral bioavailability was 91% (dog; 10 mg/kg).
For `CN(C(=O)n1cnc(-c2ccc[n+]([O-])c2)c1)C1CCCCC1`, the NOAEL was 10000 µg/kg/day (rat; oral, 6 months, repeated dosing).
The IC50 of `O=C(NCCc1ccc(Cl)c(Cl)c1)Nc1cccc2cnccc12` is reported as 10 nM (TRPV1; calcium flux, antagonist; HEK293; together with: capsaicin).
With `Cc1nn(C)cc1S(=O)(=O)NC(=O)c1ccc(-n2ccc(OCC(C)(C)C(F)(F)F)n2)nc1N1C[C@@H](C)CC1(C)C` the fraction unbound was 0.007 (pregnant women, first trimester, 1-12 weeks gestation, maternal plasma).
`CC#CC(=O)N1CC[C@@H](n2c(=O)n(-c3ccc(Oc4ccccc4)cc3)c3c(N)ncnc32)C1`: plasma exposure “increased” (rat; concentration not given, together with: fluconazole or voriconazole).

For quick reference, copied from above:
For `CCN1CCN(Cc2ccc(Nc3ncc(F)c(-c4cc(F)c5nc(C)n(C(C)C)c5c4)n3)nc2)CC1`, “apparent volume Vss/F” read ~1300 L (human; dose not given, steady state, geometric mean).
`CCC(C)n1ncn(-c2ccc(N3CCN(c4ccc(OCC5COC(Cn6cncn6)(c6ccc(Cl)cc6Cl)O5)cc4)CC3)cc2)c1=O` (stereo not drawn): “absorption rate constant” 0.75 h⁻¹ (first-order absorption model).
For `CC(C)(C)c1cc(C(C)(C)C)c(NC(=O)c2c[nH]c3ccccc3c2=O)cc1O`, “mean plasma concentration” read ~4 µM (human adults with cystic fibrosis, plasma).
`CC1(C)S[C@@H]2[C@H](NC(=O)[C@H](N)c3ccccc3)C(=O)N2[C@H]1C(=O)O` gave an MIC of > 16 µg/mL (Klebsiella pneumoniae; clinical isolate RKI-No_503/15).
The IC50 of `Cc1c(C#N)cccc1[C@@H](C)Nc1nnc(C)c2cnc(N3CCOCC3)cc12` is reported as 35.4 ± 6.6 nM (HOP-92; ERK phosphorylation, In-Cell Western, item: phospho-ERK).
`CN(C)C(=O)c1cc2cnc(Nc3ccc(N4CCNCC4)cn3)nc2n1C1CCCC1`: “decrease in Cmax” 23% (healthy human; oral, 600 mg, together with: high-fat high-calorie meal; baseline: fasted).
Under “rate constant k13”, `CN(C)C(=N)N=C(N)N` is recorded as 0.0874 min⁻¹ (patients with liver failure).
